Measured values pooled from the literature.
Lines come from different studies, so protocols differ. ± marks the error that the study gave.
Sequence of UniProt O60656 (whole entry, looked up): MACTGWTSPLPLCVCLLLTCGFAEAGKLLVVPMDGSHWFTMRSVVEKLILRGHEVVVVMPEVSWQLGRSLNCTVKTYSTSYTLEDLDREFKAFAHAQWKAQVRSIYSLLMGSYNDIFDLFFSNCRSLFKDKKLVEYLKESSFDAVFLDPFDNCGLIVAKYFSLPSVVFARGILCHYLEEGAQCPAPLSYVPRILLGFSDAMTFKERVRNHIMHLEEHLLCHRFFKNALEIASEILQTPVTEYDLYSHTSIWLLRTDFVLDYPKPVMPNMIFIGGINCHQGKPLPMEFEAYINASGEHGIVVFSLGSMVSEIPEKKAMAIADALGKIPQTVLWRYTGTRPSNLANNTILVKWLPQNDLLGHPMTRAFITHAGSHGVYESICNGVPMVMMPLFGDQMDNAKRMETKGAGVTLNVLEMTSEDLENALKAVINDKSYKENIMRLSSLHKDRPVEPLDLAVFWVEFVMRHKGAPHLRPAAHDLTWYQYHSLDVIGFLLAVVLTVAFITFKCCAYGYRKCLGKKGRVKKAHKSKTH
Sequence of UniProt P53341 (whole entry, looked up): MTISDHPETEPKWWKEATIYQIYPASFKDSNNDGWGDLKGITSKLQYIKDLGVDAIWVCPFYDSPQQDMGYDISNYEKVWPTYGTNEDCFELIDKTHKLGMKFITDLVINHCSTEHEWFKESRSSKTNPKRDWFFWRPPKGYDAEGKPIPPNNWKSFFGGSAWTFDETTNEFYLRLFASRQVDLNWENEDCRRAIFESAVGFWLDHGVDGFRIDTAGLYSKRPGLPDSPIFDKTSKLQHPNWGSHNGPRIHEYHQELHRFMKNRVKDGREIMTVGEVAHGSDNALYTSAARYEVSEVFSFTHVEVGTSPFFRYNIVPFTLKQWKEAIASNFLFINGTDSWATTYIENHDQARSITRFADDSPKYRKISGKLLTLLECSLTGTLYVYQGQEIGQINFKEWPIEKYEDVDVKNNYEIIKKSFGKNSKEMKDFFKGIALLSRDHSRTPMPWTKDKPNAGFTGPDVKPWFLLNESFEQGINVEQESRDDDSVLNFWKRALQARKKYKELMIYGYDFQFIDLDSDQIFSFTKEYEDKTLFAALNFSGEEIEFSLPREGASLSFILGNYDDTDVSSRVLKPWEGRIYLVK
Sequence of UniProt P28907 (whole entry, looked up): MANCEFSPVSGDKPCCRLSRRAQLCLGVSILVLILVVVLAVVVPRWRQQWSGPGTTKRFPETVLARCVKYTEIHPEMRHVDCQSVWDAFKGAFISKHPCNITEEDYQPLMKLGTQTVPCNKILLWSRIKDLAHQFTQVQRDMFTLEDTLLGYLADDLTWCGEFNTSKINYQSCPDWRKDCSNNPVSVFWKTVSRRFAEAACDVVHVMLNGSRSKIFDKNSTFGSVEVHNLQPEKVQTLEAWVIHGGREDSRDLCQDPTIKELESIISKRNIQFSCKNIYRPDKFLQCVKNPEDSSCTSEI
Sequence of UniProt P48729 (whole entry, looked up): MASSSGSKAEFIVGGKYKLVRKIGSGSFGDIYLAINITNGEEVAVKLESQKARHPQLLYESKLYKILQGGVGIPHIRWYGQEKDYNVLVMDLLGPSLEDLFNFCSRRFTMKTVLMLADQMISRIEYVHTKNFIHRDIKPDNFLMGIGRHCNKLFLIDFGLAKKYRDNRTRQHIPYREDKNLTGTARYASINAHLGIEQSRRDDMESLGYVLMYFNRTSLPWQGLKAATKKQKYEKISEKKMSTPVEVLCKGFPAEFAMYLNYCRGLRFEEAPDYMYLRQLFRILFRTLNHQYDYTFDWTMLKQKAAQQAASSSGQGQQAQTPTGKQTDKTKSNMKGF
Sequence of UniProt Q99NH2 (whole entry, looked up): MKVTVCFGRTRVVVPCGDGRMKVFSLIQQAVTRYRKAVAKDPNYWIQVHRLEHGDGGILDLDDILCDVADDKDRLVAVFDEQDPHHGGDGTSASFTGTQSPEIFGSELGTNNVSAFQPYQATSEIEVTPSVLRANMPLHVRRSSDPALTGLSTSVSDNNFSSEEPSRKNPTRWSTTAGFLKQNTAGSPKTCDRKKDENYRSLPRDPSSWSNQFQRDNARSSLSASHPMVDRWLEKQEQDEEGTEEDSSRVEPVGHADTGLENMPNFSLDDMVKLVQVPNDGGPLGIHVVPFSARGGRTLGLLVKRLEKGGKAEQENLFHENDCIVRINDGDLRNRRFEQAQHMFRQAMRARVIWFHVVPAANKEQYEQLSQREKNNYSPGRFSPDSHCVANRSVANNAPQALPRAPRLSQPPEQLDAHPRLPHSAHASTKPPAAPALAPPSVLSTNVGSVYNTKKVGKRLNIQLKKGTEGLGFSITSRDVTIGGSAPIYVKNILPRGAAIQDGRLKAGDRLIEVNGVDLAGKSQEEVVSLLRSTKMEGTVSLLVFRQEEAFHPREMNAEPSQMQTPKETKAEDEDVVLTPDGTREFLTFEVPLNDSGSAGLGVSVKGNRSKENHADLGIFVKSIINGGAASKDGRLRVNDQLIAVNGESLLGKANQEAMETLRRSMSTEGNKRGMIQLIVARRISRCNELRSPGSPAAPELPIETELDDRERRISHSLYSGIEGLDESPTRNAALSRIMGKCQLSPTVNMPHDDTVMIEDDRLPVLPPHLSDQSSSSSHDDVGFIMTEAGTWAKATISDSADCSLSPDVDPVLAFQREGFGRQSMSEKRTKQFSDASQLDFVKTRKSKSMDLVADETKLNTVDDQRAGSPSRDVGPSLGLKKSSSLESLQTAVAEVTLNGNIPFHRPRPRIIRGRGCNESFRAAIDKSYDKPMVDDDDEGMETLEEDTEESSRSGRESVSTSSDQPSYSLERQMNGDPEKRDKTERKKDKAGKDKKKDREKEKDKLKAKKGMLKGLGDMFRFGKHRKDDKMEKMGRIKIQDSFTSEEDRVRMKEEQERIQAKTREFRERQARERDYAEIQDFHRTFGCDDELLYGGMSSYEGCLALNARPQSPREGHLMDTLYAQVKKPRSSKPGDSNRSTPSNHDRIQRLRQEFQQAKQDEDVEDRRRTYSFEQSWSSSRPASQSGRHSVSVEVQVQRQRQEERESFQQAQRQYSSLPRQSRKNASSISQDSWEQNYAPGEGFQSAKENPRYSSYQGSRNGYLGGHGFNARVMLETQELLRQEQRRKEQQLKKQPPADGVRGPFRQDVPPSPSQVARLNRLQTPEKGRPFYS
Sequence of UniProt Q6W5P4 (whole entry, unmodified, looked up): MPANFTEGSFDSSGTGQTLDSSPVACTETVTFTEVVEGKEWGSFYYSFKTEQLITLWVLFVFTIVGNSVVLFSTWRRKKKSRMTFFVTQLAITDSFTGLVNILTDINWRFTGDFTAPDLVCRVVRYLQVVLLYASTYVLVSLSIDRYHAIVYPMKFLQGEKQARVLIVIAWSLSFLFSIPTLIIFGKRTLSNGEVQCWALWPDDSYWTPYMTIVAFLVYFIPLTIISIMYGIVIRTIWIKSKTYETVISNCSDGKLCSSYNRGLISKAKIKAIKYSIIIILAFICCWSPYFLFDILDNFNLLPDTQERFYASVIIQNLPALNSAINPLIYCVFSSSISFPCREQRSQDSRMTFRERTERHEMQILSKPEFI
Sequence of UniProt P16050 (whole entry, looked up): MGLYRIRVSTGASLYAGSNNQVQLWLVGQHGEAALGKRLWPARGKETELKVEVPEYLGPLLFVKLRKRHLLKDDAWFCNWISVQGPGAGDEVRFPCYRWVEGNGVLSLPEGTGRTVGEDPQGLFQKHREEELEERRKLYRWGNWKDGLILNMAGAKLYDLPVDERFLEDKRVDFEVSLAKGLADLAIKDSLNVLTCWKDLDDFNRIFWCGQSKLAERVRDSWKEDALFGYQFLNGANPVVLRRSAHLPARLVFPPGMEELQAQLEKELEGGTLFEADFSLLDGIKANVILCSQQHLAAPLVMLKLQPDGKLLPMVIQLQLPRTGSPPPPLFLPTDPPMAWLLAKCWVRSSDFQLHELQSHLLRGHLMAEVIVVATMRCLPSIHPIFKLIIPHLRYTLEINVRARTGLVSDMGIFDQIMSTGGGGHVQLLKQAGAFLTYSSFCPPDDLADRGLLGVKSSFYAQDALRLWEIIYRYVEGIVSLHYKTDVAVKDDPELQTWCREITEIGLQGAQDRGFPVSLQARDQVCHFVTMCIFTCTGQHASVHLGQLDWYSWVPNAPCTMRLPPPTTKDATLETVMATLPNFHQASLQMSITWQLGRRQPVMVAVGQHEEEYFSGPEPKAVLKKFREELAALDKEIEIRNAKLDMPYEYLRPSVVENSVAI
Sequence of UniProt Q96SW2 (whole entry, looked up): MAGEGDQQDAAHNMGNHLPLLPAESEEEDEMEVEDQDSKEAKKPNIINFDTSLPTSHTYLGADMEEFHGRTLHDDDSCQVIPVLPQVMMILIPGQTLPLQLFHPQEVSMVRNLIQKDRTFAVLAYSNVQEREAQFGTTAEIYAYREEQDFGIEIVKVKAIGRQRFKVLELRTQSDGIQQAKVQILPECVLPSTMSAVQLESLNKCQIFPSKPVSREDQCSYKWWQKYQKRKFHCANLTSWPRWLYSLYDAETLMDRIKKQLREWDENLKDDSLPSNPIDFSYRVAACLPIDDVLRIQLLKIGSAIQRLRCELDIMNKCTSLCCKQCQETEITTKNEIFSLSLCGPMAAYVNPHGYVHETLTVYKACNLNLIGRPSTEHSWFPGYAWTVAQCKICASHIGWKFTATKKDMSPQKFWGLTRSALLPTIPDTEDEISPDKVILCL
Sequence of UniProt Q9BY41 (whole entry, unmodified, looked up): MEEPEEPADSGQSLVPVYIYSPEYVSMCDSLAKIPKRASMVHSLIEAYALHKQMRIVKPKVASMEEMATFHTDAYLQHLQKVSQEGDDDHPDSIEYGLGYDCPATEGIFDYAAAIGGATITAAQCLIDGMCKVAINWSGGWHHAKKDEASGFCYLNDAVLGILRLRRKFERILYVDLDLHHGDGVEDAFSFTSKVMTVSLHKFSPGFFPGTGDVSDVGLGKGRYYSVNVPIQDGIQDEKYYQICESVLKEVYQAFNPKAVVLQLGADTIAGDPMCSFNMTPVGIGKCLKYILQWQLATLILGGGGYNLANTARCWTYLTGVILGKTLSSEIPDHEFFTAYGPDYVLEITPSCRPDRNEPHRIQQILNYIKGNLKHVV

SMILES | target | assay | test system | conditions | scale | quantity | value
N#Cc1cnn2ccc(-c3ccc4c(c3)CN([C@H]3CCC(=O)NC3=O)C4=O)nc12 | Cereblon/Casein kinase I alpha (CSNK1A1/CRBN, Homo sapiens, UniProt P48729+Q96SW2) | protein level, degrader, luciferase | MOLT-4 |  |  | Dmax | 93%
CC(=O)NCCN(CCC(=O)NCCN(CCC(=O)NCCN(CCC(=O)NCCC(N)=O)C(=O)[C@@H](N)CCCNC(=N)N)C(=O)[C@@H](N)Cc1ccccc1)C(=O)[C@@H](N)Cc1ccccc1 | HIV-1 TAR RNA |  |  |  |  | non-electrostatic TΔS° | -0.5 ± 1.8 kJ/mol
COCCO[C@H]1CC[C@H](Nc2cc(=O)n(C)c3ccc(-c4cncs4)cc23)CC1 | CD38 (Homo sapiens, UniProt P28907) | cyclase activity, fluorometric |  | 50 nM, added: NGD+ substrate | baseline: untreated | remaining activity | 95.7 ± 6.1%
CC(C)=CCCC(C)=CCc1cc(-c2coc3cc(OC4OC(C(=O)O)C(O)C(O)C4O)ccc3c2=O)ccc1O (centres unmarked) | UGT1A9 (Homo sapiens, UniProt O60656) | glucuronidation, substrate, recombinant enzyme |  |  |  | Vmax | 776 pmol/min/mg
C=C1C(=O)O[C@H]2[C@H]1CCC(COC(=O)CCCCCCCCCCCNC(=O)CCCC[C@@H]1SC[C@@H]3NC(=O)N[C@@H]31)=C1CC[C@@](C)(O)[C@@H]12 | Inositol 1,4,5-trisphosphate receptor type 2 (Homo sapiens, UniProt Q14571) | competitive pull-down LC-MS/MS, measured: ITPR2 | M9-ENL1 cell lysate | added: probe 10 µM | baseline: MCL-treated control | enrichment ratio | 4 fold
C=C1C(=O)O[C@@H]2[C@H]3C(CO)=CC(=O)C3=C(C)C[C@H](O)[C@@H]12 | MAL12 (Saccharomyces cerevisiae S288c, UniProt P53341) | circular dichroism |  | 65.22 µM |  | random coil content | 32.9%
CC[C@H](C)[C@H](NC(=O)[C@@H](NC(=O)[C@H](CC(C)C)NC(=O)[C@H](CCC(=O)O)NC(=O)[C@H](CCC(=O)O)NC(=O)[C@H](CCC(N)=O)NC(=O)[C@@H]1CCCN1C(=O)[C@H](CC(=O)O)NC(=O)[C@H](COP(=O)(O)O)NC(=O)CNC(=O)[C@H](Cc1ccc(O)cc1)NC(=O)[C@@H](N)CC(C)C)[C@@H](C)CC)C(=O)O | Partitioning defective 3 homolog, PDZ3 domain (Pard3, Mus musculus, UniProt Q99NH2) | fluorescence polarization |  | concentration not given | baseline: long VE-cadherin construct | binding fold increase | ~2 fold
CN1CCN(CC(=O)N2N=C3/C(=C/c4ccccc4)CCCC3C2c2ccccc2)CC1 (mixture of isomers) | ALOX15 (Homo sapiens, UniProt P16050) | activator |  | 10 µM, added: arachidonic acid 25 µM | baseline: no activator | lag phase change | 140 s
CC[C@H](C)[C@H](NC(=O)[C@H](CO)NC(=O)[C@H](CCCCN)NC(=O)CNC(=O)[C@H](CCCCN)NC(=O)[C@H](CC(=O)O)NC(=O)[C@H](Cc1c[nH]cn1)NC(=O)[C@H](CC(C)C)NC(=O)[C@H](CC(C)C)NC(=O)[C@H](CCC(N)=O)NC(=O)[C@H](Cc1c[nH]cn1)NC(=O)[C@H](CCC(=O)O)NC(=O)[C@H](CO)NC(=O)[C@@H](NC(=O)[C@H](C)N)C(C)C)C(=O)N[C@@H](CCC(N)=O)C(=O)N[C@@H](CO)C(=O)N[C@@H](CCSC)C(=O)N[C@@H](CCC(=O)O)C(=O)N[C@@H](CCCNC(=N)N)C(=O)N[C@H](C(=O)N[C@@H](CCC(=O)O)C(=O)N[C@@H](Cc1c[nH]c2ccccc12)C(=O)N[C@@H](CC(C)C)C(=O)N[C@@H](CCCNC(=N)N)C(=O)N[C@@H](CCCCN)C(=O)N[C@@H](CCCCN)C(=O)N[C@@H](CC(C)C)C(=O)N[C@@H](CCC(N)=O)C(=O)N[C@@H](CC(=O)O)C(=O)N[C@H](C(=O)N[C@@H](Cc1c[nH]cn1)C(=O)N[C@@H](CC(N)=O)C(=O)N[C@@H](Cc1ccccc1)C(=O)N[C@@H](CCCCNC(=O)c1ccc2c(c1)C1(OC2=O)c2ccc(N(C)C)cc2Oc2cc(N(C)C)ccc21)C(N)=O)C(C)C)C(C)C | PTH1R (Homo sapiens, UniProt Q03431) | binding, NanoBRET | HEK293 |  |  | koff | 0.041 ± 0.01 s⁻¹
N=C(N)NCCC[C@H](NC(=O)[C@H](Cc1ccccc1)NC(=O)[C@@H](N)CO)C(=O)N[C@@H](CC(N)=O)C(N)=O | NPSR1 (Homo sapiens, UniProt Q6W5P4, N107I) | cAMP accumulation, agonist | HEK293T | human receptor, unit not given | baseline: maximal assay window | maximal response | 1
Cc1cc(=O)oc2cc(NC(=O)CCCCCCC(=O)NO)ccc12 | HDAC8 (Homo sapiens, UniProt Q9BY41) | ITC | Tris-HCl buffer | pH 7.5, 25 °C |  | ΔG | -8.6 ± 0.2 kcal/mol

A few entries again:
SMILES | target | assay | test system | conditions | scale | quantity | value
CC[C@H](C)[C@H](NC(=O)[C@@H](NC(=O)[C@H](CC(C)C)NC(=O)[C@H](CCC(=O)O)NC(=O)[C@H](CCC(=O)O)NC(=O)[C@H](CCC(N)=O)NC(=O)[C@@H]1CCCN1C(=O)[C@H](CC(=O)O)NC(=O)[C@H](COP(=O)(O)O)NC(=O)CNC(=O)[C@H](Cc1ccc(O)cc1)NC(=O)[C@@H](N)CC(C)C)[C@@H](C)CC)C(=O)O | Partitioning defective 3 homolog, PDZ3 domain (Pard3, Mus musculus, UniProt Q99NH2) | fluorescence polarization |  | concentration not given | baseline: long VE-cadherin construct | binding fold increase | ~2 fold
CN1CCN(CC(=O)N2N=C3/C(=C/c4ccccc4)CCCC3C2c2ccccc2)CC1 (mixture of isomers) | ALOX15 (Homo sapiens, UniProt P16050) | activator |  | 10 µM, added: arachidonic acid 25 µM | baseline: no activator | lag phase change | 140 s
